# Measured values of several laboratories.
# Each numbered part is a random draw from the data of one study; scales do not carry over between parts.

# Series 1 — method: protein-binding microarray; molecule type: double-stranded DNA, one strand shown; matrix: in vitro; tested at: not given; reading: higher = stronger binding
# Target: Max-binding protein MNT, bHLH-zipper, MAX partner unstated (MNT, Homo sapiens, UniProt Q99583, residues 220-300)
# Setting: k-mer, scored over probes, only values ≥0.25
# Residues (chain): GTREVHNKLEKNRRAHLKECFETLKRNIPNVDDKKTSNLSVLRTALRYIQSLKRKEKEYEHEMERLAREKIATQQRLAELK
Oligonucleotide,E-score
GGTAGCAC,0.272
CTCCCACC,0.26
CCTCATGA,0.279
CCTCCCCG,0.285
ATGCACAT,0.365

# Series 2 — method: universal PBM; molecule type: double-stranded DNA, one strand shown; matrix: in vitro; tested at: not given; reading: higher = stronger binding
# Target: Sal-like protein 4, full length isoform B (SALL4, Homo sapiens, UniProt Q9UJQ4-2, residues 1-616)
# Setting: 8-mer, flanks averaged, mean of replicates
Oligonucleotide,E-score
ACGGTCAT,-0.0333
GACGCGCC,-0.249
ATTGGATG,0.123
AAGGTCCT,-0.168
CCCAAGAA,0.0157

# Series 3 — method: protein binding microarray; molecule type: double-stranded DNA, one strand shown; matrix: in vitro; tested at: not given; relative to: not given; reading: higher = stronger binding
# Target: Histone acetyltransferase KAT6A, both winged helices, GST fusion (KAT6A, Homo sapiens, UniProt Q92794, residues 1-181)
# Setting: 8-mer, flanks averaged, mean of 2 arrays, mostly near background
# Residues (chain): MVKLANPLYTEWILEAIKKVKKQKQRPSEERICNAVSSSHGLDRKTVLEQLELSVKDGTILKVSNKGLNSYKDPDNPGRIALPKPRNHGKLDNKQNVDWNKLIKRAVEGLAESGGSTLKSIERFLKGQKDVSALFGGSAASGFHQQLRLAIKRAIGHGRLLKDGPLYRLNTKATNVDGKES
Oligonucleotide,E-score
TCCCCTCA,-0.189
AGGGCACA,-0.185
AATTGCTG,0.067
CAAGTTCA,-0.106

# Mixed results
Substance,target,assay,system,setting,how to read,quantity,result
"PhoQ, residues 284 288 289 292 302 303 SLANKL","PhoP, residues 12 14 15 18 19 QWHVF (Escherichia coli, UniProt P23836)","Sort-seq, refers to: YFP reporter",E. coli,"PhoQ-PhoP variant library, added: 10 µM Mg2+","relative to: high Mg2+ state, higher = stronger signaling",fold induction,8.13

# Excerpt of the above (series 2):
Oligonucleotide,E-score
AAGGTCCT,-0.168
CCCAAGAA,0.0157
